Experimental data collected from several papers.
Each numbered part is a random draw from the data of one study; scales do not carry over between parts.

Set 1
Target: Fragile X messenger ribonucleoprotein 1, C-terminal low-complexity region (Fmr1, Mus musculus, UniProt P35922)
Method: RNA Bind-n-Seq
Form: RNA
Matrix: in vitro
Tested at: 200 nM
Notes: whole 134-nt RNA, ends assumed
With: 150 mM KCl
Reference: input library
Direction: higher = stronger binding
Quantity: log2 enrichment
Constant ends, left off below: GGGAGUUCUACAGUCCGACGAUC … UGGAAUUCUCGGGUGUCAAGG
ACCAUGCAGGUGGGCAUCUUUGGGAAGUGGGGCAAGGGAGGGAUAGGGAGGGGGGUAACACUUUGGGAACAGGUGGUCCCAGGUCGUUUC: 0.688
UCAAGUCCUGUGCUACACAUCGUAUGUACCGAAUCGGGAAGGGGAAGGGAAGGGGAAAGUAUUAUGUUACGCCGUUCGGAUCUGCACUUC: 0.532
AAGUCCUGUGCUACACAUCGUAUGUACCGAAUCGGGGAGGGGAGGGGUUUUUGGGGAAAGUAUUAUGUUACGCCGUUCGGAUCUGCACUU: 0.836
CUAGAGAGCUGUAGUACACAUGGAUGAACGACGAGAAGAACAAAUUGUACAGUUACUGAAUUCUGUUCAAGCGAAGAAUGAUAAAGAGUC: -0.198
UUGUGAUAGCCAAGUGGGACUACACCGCCCAGCAGGACCAGGAGCUGGACAUCAAGAAGAACGAGCGGCUGUGGUUGCUGGACGACUCCA: -1.65
AGUCCUGUGCUACACAUCGUAUGUACCGAAUCGGAAAAAGGGAAAAAGGGGAAAAAGGAAAGUAUUAUGUUACGCCGUUCGGAUCUGCAC: -0.415
CACAGACAACACGCACCCACACAGACACAGAGGGAAGGGGUUGGGAUGGGGACAGGGUGCACAGCAGGACGGGGUAGGACCCCAGCCCCU: 1.29
AGUCCUGUGCUACACAUCGUAUGUACCGAAUCAAAUUUAAAUUUUUAAACCCCCAAAAAAGUAUUAUGUUACGCCGUUCGGAUCUGCACU: 0.0664
ACCAUGCAGGUGGGCAUCUUUGGCAAGUGGGGCAAGGGGGGGAUAGGGAGGGGGGUAACACUUUGGGAACAGGUGGUCCCAGGUCGUUUC: 0.718

Set 2
Target: Interferon regulatory factor 7, full length, phosphomimetic (IRF7, Homo sapiens, UniProt Q92985, residues 1-503, S101K/S471D/S472D/S475D/S476D/S477D/S483D/S484D/S487D)
Method: protein-binding microarray
Form: double-stranded DNA, one strand shown
Matrix: in vitro
Tested at: 250 nM
Notes: 60-bp whole probe
With: salmon DNA 0.4 mg/ml
Reference: random background probes
Direction: higher = stronger binding
Quantity: log fluorescence
Constant ends, left off below: GCCTAGCAC … GTCTTGATTCGCTTGACGCTGCTG
Target sequence (chain): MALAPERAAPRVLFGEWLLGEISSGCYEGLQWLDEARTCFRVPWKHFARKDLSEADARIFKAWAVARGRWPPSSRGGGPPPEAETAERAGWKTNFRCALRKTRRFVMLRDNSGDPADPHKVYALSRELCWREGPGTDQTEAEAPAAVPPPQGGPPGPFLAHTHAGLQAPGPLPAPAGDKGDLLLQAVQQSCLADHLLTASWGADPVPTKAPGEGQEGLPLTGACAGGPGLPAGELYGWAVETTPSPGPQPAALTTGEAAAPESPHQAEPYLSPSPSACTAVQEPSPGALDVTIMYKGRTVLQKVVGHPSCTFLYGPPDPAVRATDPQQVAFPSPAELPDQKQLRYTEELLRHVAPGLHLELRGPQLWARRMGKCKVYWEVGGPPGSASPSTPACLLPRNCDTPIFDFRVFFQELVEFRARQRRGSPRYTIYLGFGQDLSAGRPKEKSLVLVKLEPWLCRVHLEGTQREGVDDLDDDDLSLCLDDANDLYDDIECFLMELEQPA
GACGAACTGGGGTATTGAGACGTGCTA: -0.346 z-score
TCATGTTTGGTGTCTTTTACTGTGCTA: 0.141 z-score
GACGATTTCAGAATGGAGACGTGCTAG: 0.252 z-score
TGCATTCCCTTTCTCAACCTGTGCTAG: 2.05 z-score
TTAGATCTCAGTATCCATTAGTGCTAG: 0.157 z-score
GACGGCATCCTTTTCCTGACGTGCTAG: -0.269 z-score
TTAGGTCTCCGTATCGGTTAGTGCTAG: 0.376 z-score
TTAGGTGCCCTTTTCCTTTAGTGCTAG: 0.514 z-score

Set 3
Target: Histone acetyltransferase KAT6A, winged helix 2, GST fusion (KAT6A, Homo sapiens, UniProt Q92794, residues 85-181)
Method: protein binding microarray
Form: double-stranded DNA, one strand shown
Matrix: in vitro
Tested at: not given
Notes: 8-mer, flanks averaged, mean of 2 arrays, mostly near background
Reference: not given
Direction: higher = stronger binding
Quantity: E-score
Target sequence (chain): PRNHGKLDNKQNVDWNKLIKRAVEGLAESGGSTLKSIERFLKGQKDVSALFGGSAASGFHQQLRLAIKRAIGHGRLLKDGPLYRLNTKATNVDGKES
CCTAATCG: -0.0116
ATCTTAGG: -0.0485
CGCCGCCA: 0.0595
GTCCCACA: 0.0776
ATTTATAG: -0.0807

Mixed results
PhoQ, residues 284 288 289 292 302 303 AGGCYF  fold induction (PhoP, residues 12 14 15 18 19 QYCSL (Escherichia coli, UniProt P23836); Sort-seq, item: YFP reporter; E. coli; PhoQ-PhoP variant library, with: 10 µM Mg2+; reference: high Mg2+ state, higher = stronger signaling): 9.21

A few entries again (set 1):
AAGUCCUGUGCUACACAUCGUAUGUACCGAAUCGGGGAGGGGAGGGGUUUUUGGGGAAAGUAUUAUGUUACGCCGUUCGGAUCUGCACUU: 0.836
AGUCCUGUGCUACACAUCGUAUGUACCGAAUCGGAAAAAGGGAAAAAGGGGAAAAAGGAAAGUAUUAUGUUACGCCGUUCGGAUCUGCAC: -0.415
CUAGAGAGCUGUAGUACACAUGGAUGAACGACGAGAAGAACAAAUUGUACAGUUACUGAAUUCUGUUCAAGCGAAGAAUGAUAAAGAGUC: -0.198
